{"data": "Results from different studies", "note": "Parts stem from different laboratories: compare values within a part only."}
{"data": "Series 1", "target": "Sal-like protein 4, full length isoform B (SALL4, Homo sapiens, UniProt Q9UJQ4-2, residues 1-616)", "technique": "universal PBM", "form": "double-stranded DNA, one strand shown", "matrix": "in vitro", "concentration": "not given", "setting": "8-mer, flanks averaged, mean of replicates", "direction": "higher = stronger binding"}
{"Oligonucleotide": "ACAATGCT", "E-score": 0.0406}
{"Oligonucleotide": "ACGTTCGA", "E-score": -0.0292}
{"Oligonucleotide": "ATCGGCGG", "E-score": -0.213}
{"Oligonucleotide": "ACAGGTCT", "E-score": -0.021}
{"Oligonucleotide": "AGACCATC", "E-score": -0.0842}
{"Oligonucleotide": "GGGGCCGA", "E-score": -0.305}
{"Oligonucleotide": "ACCCGGCC", "E-score": -0.362}
{"Oligonucleotide": "TAGCCATA", "E-score": 0.181}
{"Oligonucleotide": "AGGTCATA", "E-score": 0.163}
{"Oligonucleotide": "CGGTTATC", "E-score": -0.0705}
{"Oligonucleotide": "AAGGAACC", "E-score": -0.132}
{"Oligonucleotide": "ACCTATGG", "E-score": -0.0128}
{"Oligonucleotide": "GCAATGGC", "E-score": -0.139}
{"Oligonucleotide": "GTTAGATA", "E-score": 0.227}
{"Oligonucleotide": "TACAGGAA", "E-score": 0.129}
{"Oligonucleotide": "GCCTTGCA", "E-score": -0.0499}
{"Oligonucleotide": "ACATGGCC", "E-score": -0.0706}
{"Oligonucleotide": "AGACGTTA", "E-score": 0.185}
{"Oligonucleotide": "CATGTACG", "E-score": 0.0748}
{"Oligonucleotide": "AACTTGAA", "E-score": 0.133}
{"Oligonucleotide": "GTCATCCA", "E-score": -0.0761}
{"Oligonucleotide": "GATAAGAA", "E-score": 0.212}
{"Oligonucleotide": "CGCAGGAG", "E-score": -0.191}
{"Oligonucleotide": "ATTACACA", "E-score": 0.317}
{"data": "Series 2", "target": "RING finger protein unkempt homolog, zinc fingers 1-6, GST-SBP tag (UNK, Homo sapiens, UniProt Q9C0B0, residues 30-357)", "technique": "RNA Bind-n-Seq", "form": "RNA", "matrix": "in vitro", "concentration": "not given", "setting": "RNA with constant flanks, human and mouse sites, ends assumed", "baseline": "input RNA pool", "direction": "higher = stronger binding", "constant ends, left off below": "GGGAGUUCUACAGUCCGACGAUC … CAACAGAGGAUUGAGCAUCA", "Target sequence (chain)": "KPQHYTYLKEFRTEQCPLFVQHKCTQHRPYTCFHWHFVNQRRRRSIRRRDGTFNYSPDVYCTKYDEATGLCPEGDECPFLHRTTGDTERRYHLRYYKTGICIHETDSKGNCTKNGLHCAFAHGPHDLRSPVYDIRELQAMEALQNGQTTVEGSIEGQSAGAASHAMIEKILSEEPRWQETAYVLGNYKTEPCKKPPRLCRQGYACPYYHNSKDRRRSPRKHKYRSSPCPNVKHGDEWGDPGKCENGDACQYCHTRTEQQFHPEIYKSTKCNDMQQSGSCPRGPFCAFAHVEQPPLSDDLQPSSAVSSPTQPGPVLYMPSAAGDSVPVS"}
{"Oligonucleotide": "GCUUCAGAUGACAUGACUGUGGUAGAUGCAGCUUCAUUAAGACGUCAGAUAAUCAAAUUAAAUAGACGUCUCCAACUUCUGGAAGAGGAGAAUAAAGAGCGUGCUAAAAGAGAAAUGGUC", "bound/input enrichment": "0.411 ratio"}
{"Oligonucleotide": "GUCAAUGACCAAAUAAUUACCACCUCACAAGCCAACUUUGGCAAGACCCUAUCUCUCCCCUACUCCUGAAUACAAUCGUGUGCAUUGGUUCUUCCAGGAAGACCAGAUUGAAUGGAAAUG", "bound/input enrichment": "0.604 ratio"}
{"Oligonucleotide": "CUGGUUCCCGCCGGCGAGGAUUGUUAAAAUGAGUCUUCGGAAGCAAACCCCUAGUGACUUCUUAAAGCAAAUCAUCGGACGACCAGUUGUGGUAAAAUUAAAUUCUGGAGUGGAUUAUCG", "bound/input enrichment": "0.684 ratio"}
{"Oligonucleotide": "GCAAAUUUUGCCAGAAAUGAUGCAAAUUGUAUUCAUAUGGUAGACAAUGGGAUUGUAGAAAAACUUAUGGAUUUACUGGACAGACAUGUAGAAGAUGGAAAUGUAACAGUACAGCAUGCA", "bound/input enrichment": "0.582 ratio"}
{"Oligonucleotide": "UGGAUCCAUCGAUGCUGUUCCUGUUGAUGAAAACCUGUUCACUGGCGAAGAUCUGGAUGAACUAGAAGAGGAAUUGAACACUCUUGACUUAGAAGAAUGAUGAGGAUGAAAACUAGGUCA", "bound/input enrichment": "0.572 ratio"}
{"Oligonucleotide": "GAAGCUGACAGUGAUAAUUAUGAAGUUUUAUUCAACCUGGAAGAACUUAAAUUGGAUCAGCCUUUCAUUGAUUGCAUCAGAGUUGCUCCUGAUGAGAAAUACGUGGCUGCCAAGAUAAGG", "bound/input enrichment": "0.33 ratio"}
{"Oligonucleotide": "GGAUCUAGCCUUGGAGGGUGGCUUAUGCUUCAUGCUGCAAUUGCACGACCAGAGAAGGUCGUGGCUCUUAUUGGUGUAGCUACAGCUGCAGAUACCUUAGUGACAAAGUUUAAUCAGCUU", "bound/input enrichment": "0.472 ratio"}
{"Oligonucleotide": "UACAAGUAUUUUAAUUUAAGUUCAGUGAACUUUUUUGUAGCUGGGUUAAAUCUUUUUAUUUUUAGUAUGGCCUUAUGGCAAAGAACACUGUAUUAUUUUAAUAAUCACACGAUUGUGACG", "bound/input enrichment": "2.14 ratio"}
{"Oligonucleotide": "UACGUAAUCGAUGAAAAUGAUUAUAUGUCAUUCAUAAACAACCCCAGCCUCACCGUCACAGUGCCAAUUGCUGUUGGAGAGUCUGACUUUGAAAACUUAAAUACUGAAGAGUUCAGCAGU", "bound/input enrichment": "0.0822 ratio"}
{"Oligonucleotide": "AAUUCUAUUGAAGUAUUUAUUUUGUGAAGAUGGCAAUUUUGCAUUUGUUUAAAUUUUUUUCAUUCUUUAAUUUUGUUAUCAGUGCCAGCCCAAUAUACCUGCUCUACCAUUAUUUGCGGU", "bound/input enrichment": "0.91 ratio"}
{"Oligonucleotide": "GUGUCUGGUGUGGGUUUCCCAAGCAAGGUUCCUUGGAAGAAGAUGUCUGCAGAGGAGCUGGAGAAUCAGUACUGUCCCAGCCGAUGGGUUGUCCGACUGGGAGCAGAGGAAGCCUUGAGG", "bound/input enrichment": "0.157 ratio"}
{"data": "Series 3", "target": "Histone acetyltransferase KAT6A, winged helix 1, GST fusion (KAT6A, Homo sapiens, UniProt Q92794, residues 1-85)", "technique": "protein binding microarray", "form": "double-stranded DNA, one strand shown", "matrix": "in vitro", "concentration": "not given", "setting": "8-mer, flanks averaged, mean of 2 arrays, mostly near background", "baseline": "not given", "direction": "higher = stronger binding", "Construct (chain)": "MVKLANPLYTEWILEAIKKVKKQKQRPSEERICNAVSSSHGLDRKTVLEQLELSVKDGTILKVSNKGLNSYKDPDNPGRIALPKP"}
{"Oligonucleotide": "CAGGAACC", "E-score": -0.199}
{"Oligonucleotide": "AGAAGCCA", "E-score": -0.0899}
{"Oligonucleotide": "AAGTAGCA", "E-score": -0.248}
{"Oligonucleotide": "ATTCCTAG", "E-score": -0.194}
{"Oligonucleotide": "ACTTCTGC", "E-score": 0.016}
{"Oligonucleotide": "AGGGTCCC", "E-score": -0.0547}
{"Oligonucleotide": "AAACTATA", "E-score": 0.00826}
{"Oligonucleotide": "ACCAGCAG", "E-score": -0.172}
{"Oligonucleotide": "CCTAAACG", "E-score": 0.0762}
{"Oligonucleotide": "CTGATACA", "E-score": -0.0933}
{"Oligonucleotide": "CATACAAC", "E-score": -0.0722}
{"Oligonucleotide": "CGGGGATC", "E-score": 0.232}
{"Oligonucleotide": "ATTACCAA", "E-score": -0.0491}
{"Oligonucleotide": "AAGCGAAA", "E-score": -0.113}
{"Oligonucleotide": "CAATGAGG", "E-score": -0.197}
{"Oligonucleotide": "GATTAAAA", "E-score": -0.0905}
{"Oligonucleotide": "CCAAGGGG", "E-score": -0.0183}
{"Oligonucleotide": "CCTTATGA", "E-score": -0.0694}
{"Oligonucleotide": "ACGGAACC", "E-score": 0.282}
{"Oligonucleotide": "GATAGAAA", "E-score": -0.0944}
{"Oligonucleotide": "ATAGGTCC", "E-score": -0.0182}
{"Oligonucleotide": "CTGAGGAC", "E-score": -0.164}
{"Oligonucleotide": "AAACCGGA", "E-score": -0.0426}
{"Oligonucleotide": "AGGTGGTC", "E-score": -0.12}
{"Oligonucleotide": "CCAGGAGG", "E-score": -0.199}
{"data": "Series 4", "target": "RNA binding protein fox-1 homolog 2, RRM domain, GST-SBP tag (RBFOX2, Homo sapiens, UniProt O43251-10, residues 100-194)", "technique": "RNA Bind-n-Seq", "form": "RNA", "matrix": "in vitro", "concentration": "365 nM", "setting": "natural RNA segment, single round, ends assumed", "baseline": "no-protein control", "direction": "higher = stronger binding", "constant ends, left off below": "GGGAGUUCUACAGUCCGACGAUC … UGGAAUUCUCGGGUGCCAA", "Construct (chain)": "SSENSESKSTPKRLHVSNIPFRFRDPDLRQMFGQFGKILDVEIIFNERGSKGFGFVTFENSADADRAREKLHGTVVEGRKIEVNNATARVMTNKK"}
{"Oligonucleotide": "GUGAAGAGGGCCAGGACAGAUUGGACAGCUUAUUUCUCUAUAGCAAGUAAAAGCGUUAUGUUACAGUAAUUAACAGACCUACUGGGCCCAGGGGAAAAAAAGAAAUGAAU", "RBNS enrichment (R)": 0.662}
{"Oligonucleotide": "CUACAUGGACAAGCUGUUUUCUUUUCUAGGUUACUGAUAACCCCUACAAUUUUCGACUUAACUUCAAAACACAGUAUUGUGUUAUCUAUCACAUAACAGGACCAUGUUUU", "RBNS enrichment (R)": 0.433}
{"Oligonucleotide": "UACAAUUCAAGAUGAGAUUUGGAUGGGACACAGCCAAACCAUAUCAAUAGGUAUUAUUUUAUCCCCCAUUUUAUAAAUGAGGAAACGGAGGCUUAGUUGAGUGAGCUGAC", "RBNS enrichment (R)": 0.333}
{"Oligonucleotide": "CUGAGGCAGAAGGAGGUGAGCACUUAAUCCUUUGAGCCAUGCGGUCUCUUUUACAGUCUAGAAACUGUACAUAUAUGUGAAAAGGAAAAAAAACCCUAUAUAUAUAUAUU", "RBNS enrichment (R)": 0.967}
{"Oligonucleotide": "UGAAAUUACUUGCUUCCCAAAUUAAAUAAAUUUCAUCUCAUUUUUUUCCCUAAACCAGCACCCAUCUGCCUUUUAUUCCCCAAAGAGUUACCUUUCCCAGAUUAGGGGGA", "RBNS enrichment (R)": 2.15}
{"Oligonucleotide": "CUGGUGGCCAAGGUGGGCAGUAGGCAUGAGCUUCCAGCAGGAAAGGACAAGAGAGUAGGCAGGCUUACAGGUGCAGACUGAGUGCUUCUCCGCCUGCCCUCUUCCCCUUG", "RBNS enrichment (R)": 4.21}
{"Oligonucleotide": "UUAAAUUGGCUUUGGCCAGUAGCUAAAGUGCAAGACUGAAUUAAUGAGAAGAUAUAUUAAAUGUAGUCAUAGGGGACUGAGGAGCAAGGGUGGCCUUGAAGAGGCCAAAG", "RBNS enrichment (R)": 0.613}
{"Oligonucleotide": "CUGAGGGAGGGAAAUACAGAAGCCACCUUUUUAUUUCUCUUCACUGUGUACAAGUUCACUUGUUGUCUUGAACACUGUCUCAAAUACCUGCUUUUUGUUUUGGAUAGUAC", "RBNS enrichment (R)": 0.348}
{"Oligonucleotide": "GAGAGAGAACAUCUCUCCGGACCCCCUGACUCAGAGCCUCGUGGCCCGGCAUCCCUUAGCCUCUAUAGCAGUGUGCUCAAAAGCCCUGGCUCAACAAAGCACAUCUUCAC", "RBNS enrichment (R)": 0.178}
{"Oligonucleotide": "CCCCAGAUUCCCUGAAAAUCCUGAGAUCAAUCACAUUUAACAUCAGAAGAACCCUUAGUGUCCACCUGGCCCUAUGUUUCCCAGAAUUCAAGCGGAAAACAUCUGAGAAU", "RBNS enrichment (R)": 0.267}
{"Oligonucleotide": "AGCACUUGUGCCUCAGCCCCUCACCUGGCCACCUGCCAGGGCACCUGCAACCCUAGCAAUACCAUGCUCGCUGGAGAGGCUCAGCUGCCUGCUUCUGGCCUGCCUGUGUC", "RBNS enrichment (R)": 0.278}
{"Oligonucleotide": "UACCCAGCACAUGAAAGACCUACAACAUGUGCUUGCCAAAGGAAUGUUAGAAUCUGCUCAUGUGUGUGUCACCAUGCCAAGCCAUGCCAGCCACAGACUGAGGCUUCCGG", "RBNS enrichment (R)": 0.366}
{"note": "For quick reference, copied from above (series 3):"}
{"Oligonucleotide": "AAACTATA", "E-score": 0.00826}
{"Oligonucleotide": "ACCAGCAG", "E-score": -0.172}
{"Oligonucleotide": "CCTAAACG", "E-score": 0.0762}
{"Oligonucleotide": "CTGATACA", "E-score": -0.0933}
{"Oligonucleotide": "CATACAAC", "E-score": -0.0722}
{"Oligonucleotide": "CGGGGATC", "E-score": 0.232}
{"Oligonucleotide": "ATTACCAA", "E-score": -0.0491}
